Published values from different studies.
Every numbered part comes from another study and shows a few of its results, in no order. Positions count from the first letter of the parent shown.

Sample 1
Target: CCNA2, cyclin fold, Cln2 fusion (human)
Method: yeast growth competition, sequencing
Matrix: yeast
Setting: strong parent motif
Reference: not given
Reading: higher = stronger binding
Starting sequence: TICRR docking peptide (human); TKVRRNLFNQELL; partner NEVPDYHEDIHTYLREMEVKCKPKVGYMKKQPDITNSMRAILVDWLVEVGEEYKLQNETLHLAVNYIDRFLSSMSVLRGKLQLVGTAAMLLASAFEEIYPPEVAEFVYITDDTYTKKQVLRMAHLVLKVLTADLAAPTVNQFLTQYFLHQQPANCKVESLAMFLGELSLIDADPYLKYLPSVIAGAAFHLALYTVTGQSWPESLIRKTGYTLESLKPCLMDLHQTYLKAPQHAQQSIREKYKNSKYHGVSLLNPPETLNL
| Substitution | normalised enrichment score |
| --- | --- |
| TKVRANAFNQELL [R5A L7A] | 0.542 |
| TKVRANLFNQELL [R5A] | 0.858 |
| TKVRRNLFNQELA [L13A] | 5.88 |
| TKVARNLFNQELL [R4A] | 2.95 |
| TKVRRALFNQELL [N6A] | 5.24 |
| TKVRRNLLNQELL [F8L] | 1.42 |
| TKARRNLFNQELL [V3A] | 3.03 |
| TKVRRNLFNAELL [Q10A] | 3.59 |
| TKVRRNLFAQELL [N9A] | 5.16 |

Sample 2
Target: Histone acetyltransferase KAT6A, winged helix 1, GST fusion (KAT6A, Homo sapiens, UniProt Q92794, residues 1-85)
Method: protein binding microarray
Form: double-stranded DNA, one strand shown
Matrix: in vitro
Concentration: not given
Setting: 8-mer, flanks averaged, mean of 2 arrays, mostly near background
Reference: not given
Reading: higher = stronger binding
Target sequence (chain): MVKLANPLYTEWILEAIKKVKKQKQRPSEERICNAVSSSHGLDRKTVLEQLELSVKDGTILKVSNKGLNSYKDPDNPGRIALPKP
| Strand | E-score |
| --- | --- |
| AATAGTAC | 0.0472 |
| AAGAGATC | -0.171 |
| ATGGGACA | -0.116 |
| ACTGCCAT | -0.16 |
| GAGACACC | -0.0944 |
| ACCCCAGT | -0.282 |
| GTCTCCAC | -0.0391 |
| AAGATACG | 0.0288 |
| CAATAGCG | 0.162 |
| CCGAGTAG | 0.0749 |
| CCGTTTCA | 0.16 |

Sample 3
Target: ABI1, truncated, D143A, DHFR fusion (Arabidopsis thaliana)
Method: DHFR PCA, deep sequencing
Matrix: yeast
Setting: methotrexate growth selection, single substitutions
Added: (+)-ABA 4.8 µM
Reference: wild-type fitted maximum
Reading: higher = stronger binding
Starting sequence: PYL1, truncated, DHFR fusion (Arabidopsis thaliana); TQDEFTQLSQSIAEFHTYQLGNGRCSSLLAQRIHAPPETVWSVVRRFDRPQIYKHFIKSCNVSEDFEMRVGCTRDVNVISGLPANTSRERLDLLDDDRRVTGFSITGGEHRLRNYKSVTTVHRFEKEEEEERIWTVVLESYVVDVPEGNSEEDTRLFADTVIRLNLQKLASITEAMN
| Substitution | relative binding score |
| --- | --- |
| A30T | 70.1% |
| E130A | 80.9% |
| Y141E | 3.02% |
| G107M | 1.66% |
| V40D | -15.1% |
| G102E | -0.728% |
| F103H | -2.3% |
| G148P | 11% |
| N165G | -1.49% |
| C72M | 69.6% |
| E147Q | 63.7% |
| S9A | 79.5% |
| D96V | -1.5% |
| H55A | 89.7% |
| L166W | -17.6% |
| V145W | -4.28% |

Further values, each from its own experiment
| Substance | target | test | system | setting | how to read | endpoint | value |
| --- | --- | --- | --- | --- | --- | --- | --- |
| PhoQ, residues 284 288 289 292 302 303 AQGLTV | PhoP, residues 12 14 15 18 19 LHHSG (Escherichia coli, UniProt P23836) | Sort-seq, item: YFP reporter | E. coli | PhoQ-PhoP variant library, added: 10 µM Mg2+ | reference: high Mg2+ state, higher = stronger signaling | fold induction | 5.91 |

Excerpt of the above (sample 2):
| Strand | E-score |
| --- | --- |
| GTCTCCAC | -0.0391 |
| AAGATACG | 0.0288 |
| CAATAGCG | 0.162 |
| CCGAGTAG | 0.0749 |
